Published values from different studies.
Protocols differ between the studies behind these lines.
Target: Adenosine receptor A1 (ADORA1, Homo sapiens, UniProt P30542)
Chain of UniProt P30542 (whole entry, looked up): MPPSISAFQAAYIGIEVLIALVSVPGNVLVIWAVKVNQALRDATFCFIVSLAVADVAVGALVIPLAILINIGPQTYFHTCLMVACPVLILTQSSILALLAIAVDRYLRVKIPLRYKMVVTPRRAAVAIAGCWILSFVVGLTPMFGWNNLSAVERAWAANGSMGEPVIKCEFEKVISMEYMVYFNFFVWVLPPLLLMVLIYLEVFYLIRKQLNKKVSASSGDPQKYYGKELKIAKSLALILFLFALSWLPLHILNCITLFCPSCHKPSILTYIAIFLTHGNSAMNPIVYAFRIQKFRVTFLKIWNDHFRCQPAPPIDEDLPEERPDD

For `C[C@H](NCc1ccc(-c2ccc(C(F)(F)F)cc2)cc1)C(N)=O`, the inhibition was 3% (radioligand binding, SafetyScreen panel; 1 µM, species human, with: 1.0 nM [3H]DPCPX).
The inhibition of `CS(C)(=O)=Nc1ccc(-c2ccc(-c3nc4cc(O[C@@H]5CO[C@H]6[C@@H]5OC[C@H]6O)[nH]c4cc3F)cc2)cc1` is reported as 2% (calcium signal, antagonist; 10 µM).
The inhibition of `CCOC(=O)[C@](CC)(CCCSCCOCCOCCNC(=O)c1ccc(-c2c3ccc(=N)c(S(=O)(=O)O)c-3oc3c(S(=O)(=O)O)c(N)ccc23)c(C(=O)O)c1)NC(=O)c1ccc(C2CC2)c(Cc2ccc(F)cc2)n1` is reported as 2% (ligand displacement, radioligand; 10 µM).
For `COc1ccc(F)cc1S(=O)(=O)Nc1cnc2c(c1)C(=O)NCCO2`, the inhibition was -2% (ligand displacement, radioligand; 10 µM).
`Cc1sc2c(c1C)C(c1ccc(Cl)cc1)=NC(CC(=O)OC(C)(C)C)c1nnc(C)n1-2` (centres unmarked) has an inhibition of -10% (ligand displacement, radioligand; 1 µM).
With `Cc1ccc2c(n1)c(-c1cccc(S(C)(=O)=O)c1)c(C)n2C/C(F)=C/CN` the inhibition was 4% (ligand displacement, radioligand; 10 µM).
The response of `N[C@H](C(=O)N1CCCC1)C1CCN(c2nccc3c(-c4ncc(Cl)cc4Cl)cccc23)CC1` is reported as -2% (functional response, agonist; 10 µM).
The inhibition of `CN[C@@H]1[C@H](O)[C@H](NC)[C@H]2O[C@]3(O)[C@H](O[C@@H]2[C@H]1O)O[C@H](C)C[C@H]3NC(=O)Cc1cc(Cl)ccn1` is reported as 8% (ligand displacement, radioligand; 10 µM).

Excerpt of the above:
For `C[C@H](NCc1ccc(-c2ccc(C(F)(F)F)cc2)cc1)C(N)=O`, the inhibition was 3% (radioligand binding, SafetyScreen panel; 1 µM, species human, with: 1.0 nM [3H]DPCPX).
